{"data": "Published values from different studies", "note": "Each line is one published result; not all experiments were run side by side. “And” joins repeats or separate records; there may be more than shown."}
{"Compound": "CNS(=O)(=O)Nc1nccc(Cc2c(C)c3ccc(Oc4ncccc4F)cc3oc2=O)c1F", "target or system": "SET-2", "test": "cell viability", "conditions": "7 days", "measurement": "IC50", "result": "6.33 nM"}
{"Compound": "C=CC(=O)Nc1cccc(Cn2ncc3cnc(Nc4cnn(CCOC)c4)nc32)c1", "target or system": "CDC2L5 human", "test": "binding, KINOMEscan", "conditions": "100 nM", "how to read": "lower = stronger binding", "measurement": "percent of control", "result": "79%"}
{"Compound": "CCN(CC)CC(=O)Nc1cccc(-n2cc(-c3ccc4ccc(-c5cn(-c6cccc(NC(=O)CN(CC)CC)c6)nn5)cc4c3)nn2)c1", "target or system": "RCC4", "test": "PCR angiogenesis array, item: TIMP3", "conditions": "5 x IC50, 2 h, normoxia", "how to read": "baseline: untreated", "measurement": "fold regulation", "result": "1.02 fold"}
{"Compound": "C=C(NC(=O)c1csc(-c2nc3c(cc2O)-c2nc(cs2)C(=O)NC(C(C)O)C(=O)NC(=C(C)OC)c2nc(cs2)C(=O)NC2c4nc(cs4)C(=O)NC(COC(=O)c4c5c6c(cccc6n4O)COC(=O)C(OC4CC(C)(O)C(N(C)C)C(C)O4)C2OC5)c2nc-3cs2)n1)C(N)=O (stereo not drawn)", "target or system": "Streptococcus pneumoniae", "test": "broth microdilution", "system": "penicillin-resistant isolates", "measurement": "MIC90", "result": "0.0156 µg/mL"}
{"Compound": "c1ccc(-c2n[nH]cc2-c2ccnc3ccccc23)nc1", "target or system": "SKY1 (Candida albicans)", "test": "kinase binding, MIB/MS competition", "system": "Candida albicans lysate", "conditions": "10 µM", "how to read": "baseline: DMSO", "measurement": "log2 fold change", "result": -0.24}
{"Compound": "COC1CN([C@H]2CC[C@H]([C@@]3(C)Oc4c(Cl)cc(C(=O)NCc5c(SC)cc(C)[nH]c5=O)c(C)c4O3)CC2)C1", "test": "RNA-seq, item: CFAP54", "system": "human, whole blood", "conditions": "dose not given, 24 h", "how to read": "baseline: pretreatment baseline", "measurement": "log2 fold change", "result": 1.33}
{"Compound": "CN1CCCNC(=O)c2cccc(c2)C(=O)NCCCN(C)CCCNc2cccc3c2C(=O)c2cccc(c2C3=O)NCCC1", "target or system": "SAS", "test": "RNA-Seq, item: TTC32 mRNA", "conditions": "1 µM, 6 h", "how to read": "baseline: untreated cells", "measurement": "log2 fold change", "result": 1.31}
{"Compound": "C=CC(=O)N1[C@@H](c2ccc3c(c2)OCO3)c2[nH]c3ccccc3c2C[C@H]1C(=O)N1CCN(C)CC1", "target or system": "human cyclin E1 wild type-3xFLAG:CDK2", "test": "co-IP with TMT proteomics, item: DNAJA1", "conditions": "concentration not given, P31689", "how to read": "baseline: wild type DMSO", "measurement": "relative co-enrichment", "result": "91%"}
{"Compound": "COc1cc2c(NC3CCN(C(C)C)CC3)cc(N3CCOCC3)nc2cc1OCCCN1CCCC1", "test": "TMT proteomics, item: THY1", "system": "5xFAD mice, hippocampus", "conditions": "dose not given", "how to read": "baseline: untreated 5xFAD mice", "measurement": "log2 fold change", "result": 0.0458}
{"Compound": "Nc1ncc(-c2cc(-c3cnn(CC(F)(F)F)c3)ncc2F)nc1C(=O)NC1CNCC(F)C1 (stereo not drawn)", "target or system": "CDK4", "test": "KINOMEscan", "conditions": "1 µM", "how to read": "baseline: DMSO control", "measurement": "remaining binding", "result": "86%"}
{"Compound": "Cc1ncsc1-c1ccc(C(C)NC(=O)C2CC(O)CN2C(=O)C(NC(=O)CCCCCCCCCCN2CCCC(Nc3ncc(Cl)c(Nc4ccccc4S(=O)(=O)C(C)C)n3)C2)C(C)(C)C)cc1 (stereo not drawn)", "target or system": "22Rv1", "test": "RNA-seq, item: SLC29A3 mRNA", "conditions": "concentration not given", "how to read": "baseline: DMSO", "measurement": "log2 fold change", "result": -1.41}
{"Compound": "COc1ccccc1-c1ccncc1C(=O)Nc1nnc(OCc2ccc(Cl)cc2)s1", "target or system": "MDA-MB-436", "conditions": "12 µM", "measurement": "colony count", "result": "13 and 5.5 and 13.5"}
{"note": "Excerpt of the above:"}
{"Compound": "Cc1ncsc1-c1ccc(C(C)NC(=O)C2CC(O)CN2C(=O)C(NC(=O)CCCCCCCCCCN2CCCC(Nc3ncc(Cl)c(Nc4ccccc4S(=O)(=O)C(C)C)n3)C2)C(C)(C)C)cc1 (stereo not drawn)", "target or system": "22Rv1", "test": "RNA-seq, item: SLC29A3 mRNA", "conditions": "concentration not given", "how to read": "baseline: DMSO", "measurement": "log2 fold change", "result": -1.41}
{"Compound": "CNS(=O)(=O)Nc1nccc(Cc2c(C)c3ccc(Oc4ncccc4F)cc3oc2=O)c1F", "target or system": "SET-2", "test": "cell viability", "conditions": "7 days", "measurement": "IC50", "result": "6.33 nM"}
